Measured values collected from several papers.
Numbered parts are unrelated; each lists some results of a single study.

Sample 1
Target: RNA binding protein fox-1 homolog 2, RRM domain, GST-SBP tag (RBFOX2, Homo sapiens, UniProt O43251-10, residues 100-194)
Method: RNA Bind-n-Seq
Molecule type: RNA
Matrix: in vitro
Concentration: 365 nM
Setting: natural RNA segment, single round, ends assumed
Reference: no-protein control
Reading: higher = stronger binding
Measurement: RBNS enrichment (R)
All sequences stand within: GGGAGUUCUACAGUCCGACGAUC … UGGAAUUCUCGGGUGCCAA
Residues (chain): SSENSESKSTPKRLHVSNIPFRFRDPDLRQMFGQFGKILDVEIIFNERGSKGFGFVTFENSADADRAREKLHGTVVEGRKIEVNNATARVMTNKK
AUGAGGAUCCUGAUCCUCUUUUGUCCUCUCCAGGUAGUCUCGCAGGUUAUGCAGCUUAAGUUCAGUCUUCUUUAUGCUGCGAUUGAUUUCCACCUCAGUGGCUUAGCCUU: 0.272
GUCCACCGAAUGUCACUCACUGAGCUGGGGUUGCUUUGUCUGUCUGAUUCAAAAUGUGUCCACACUUCGUAGAGUCUAGAAUACUGGACUGUAGAGAAACUACUUUGAAC: 0.459
CUGCCAGUGCCUUACCACCUACCCAGGAAAGCAGGUCCUUGAGCCACCCAGGCCUUACAAUUUGAUCACCAAGAGUAUCCCAGAAGUUAUCUCAGCUUCUCCAUCACCCC: 0.42
CACCCUCUGCUGCUUAGUGCUUGGGUACCUCUUGCAAUAACCAGCUCUUAGUUGUUCCCUUUCCCUGGGGCUUUUCCAUUUAACACAUGGAGCCCUUCCCCCAGAAGGCU: 0.218
UCUUUUACUGUAAGUUACUUAAGAUCAUUUUUGGAAGCAGGCGUGGUAGAGUCCUGUAAAUGAAUGCUCUGGGCUAGAUACAGCUUGGAGAACCUGCUGGCCUUGUUAGA: 1.4
CCCUCCCCAGGUGGGCAGGGCGGAGGGAGCCUCAGCCUCCUUAGACUGACCCCUCAGGCCCCUAGGCUGGGGGGUUGUAAAUAACAGCAGUCAGGUUGUUUACCAGCCCU: 0.226
UUGAUUUGUAAAACCCUUGAAAUGUAGAUUUCUUGUAGAUGUAUCCUUCACGUUGUAAAUAUGUUUUGUAGAGUGAAGCCAUGGGAAGCCAUGUGUAACAGAGCUUAGAC: 0.538
UUUCAAGCAAGAAGCGGGCGGAGUAAACGCGUGUGACCACUUAAAGCUGCUUGUUAACAUGGAAGACUUCUCCACUCUCCCUUAGUGAGAACAAAUACACACUUGACAUG: 0.416

Sample 2
Target: Ras GTPase-activating protein-binding protein 1, full length (G3BP1, Homo sapiens, UniProt Q13283)
Chain of UniProt Q13283 (whole entry, looked up): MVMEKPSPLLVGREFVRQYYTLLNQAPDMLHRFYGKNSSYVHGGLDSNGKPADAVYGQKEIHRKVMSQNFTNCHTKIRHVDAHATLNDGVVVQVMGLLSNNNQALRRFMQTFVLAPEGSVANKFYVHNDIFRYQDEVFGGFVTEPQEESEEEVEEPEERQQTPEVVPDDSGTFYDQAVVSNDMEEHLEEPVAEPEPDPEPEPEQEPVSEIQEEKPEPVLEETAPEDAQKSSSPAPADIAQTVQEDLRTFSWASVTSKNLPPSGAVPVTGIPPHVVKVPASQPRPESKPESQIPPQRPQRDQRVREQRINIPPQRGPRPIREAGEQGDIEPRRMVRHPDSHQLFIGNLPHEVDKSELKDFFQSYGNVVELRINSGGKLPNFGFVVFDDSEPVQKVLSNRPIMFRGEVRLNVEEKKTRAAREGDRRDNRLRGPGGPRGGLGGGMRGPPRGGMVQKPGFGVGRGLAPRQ
Method: RNA Bind-n-Seq
Molecule type: RNA
Matrix: in vitro
Concentration: 200 nM
Setting: whole 134-nt RNA, ends assumed
With: 150 mM KCl
Reference: input library
Reading: higher = stronger binding
Measurement: log2 enrichment
All sequences stand within: GGGAGUUCUACAGUCCGACGAUC … UGGAAUUCUCGGGUGUCAAGG
CAAGUCCUGUGCUACACAUCGUAUGUACCGAAUCGGAAAAGGAAAAGGAAAAGGGGAAAGUAUUAUGUUACGCCGUUCGGAUCUGCACUU: -0.883
UGCCCAGCUCAUGCUGGACCACCUGAAGAACAGUGCUCCCAGCAAGCGAGAGAUUGCCCAGCUCAAGAACCAGGUAUCCACAGAGAGCAC: -0.825
UGGUCAUGGGAUGGAGAACCAGUUCUUCCCUUAUAUCUUCACCAUAUGACUAUUGACCCUGUCUUAGGCUGCUCCCAGGCCGUUCCAUUG: 0.972
UCAAGUCCUGUGCUACACAUCGUAUGUACCGAAUCGGUGGUUUUUUUGGAAAGGAAAGUAUUAUGUUACGCCGUUCGGAUCUGCACUUCC: -0.857
UCCUGUGCUACACAUCGUAUGUACCGAAUCGGGGCCCCCGGGGCCCCCGGGGCCCCCGGAAAGUAUUAUGUUACGCCGUUCGGAUCUGCA: 0.374
AGUCCUGUGCUACACAUCGUAUGUACCGAAUCGGAAAAGGGGAAAAGGGGAAAAGGGGAAAGUAUUAUGUUACGCCGUUCGGAUCUGCAC: -0.0427
ACCAUGCAGGUGGGCAUCUUUGGGAAGUGGGGCAAGGGGGGGAUAGGGAGGGGGGUAACAAAAUGGGAACAGGUGGUCCCAGGUCGUUUC: 1.11
ACCAUGCAGGUGGGCAUCUUUGGGAAGUGGGGCAAGGGGGGGAUAGGGAGGGGGGUAACACUUUGGGAACAGGUGGUCCCAGGUGGUUUC: 1.13
CCUGUGCUACACAUCGUAUGUACCGAAUCAAACCCCCAAACCCCCCCAAACCCCCCCAAAAAAGUAUUAUGUUACGCCGUUCGGAUCUGC: 0.218

Sample 3
Target: ATP-dependent RNA helicase DDX3X, helicase core (DDX3X, Homo sapiens, UniProt O00571, residues 132-607)
Chain of UniProt O00571 (132-607, looked up): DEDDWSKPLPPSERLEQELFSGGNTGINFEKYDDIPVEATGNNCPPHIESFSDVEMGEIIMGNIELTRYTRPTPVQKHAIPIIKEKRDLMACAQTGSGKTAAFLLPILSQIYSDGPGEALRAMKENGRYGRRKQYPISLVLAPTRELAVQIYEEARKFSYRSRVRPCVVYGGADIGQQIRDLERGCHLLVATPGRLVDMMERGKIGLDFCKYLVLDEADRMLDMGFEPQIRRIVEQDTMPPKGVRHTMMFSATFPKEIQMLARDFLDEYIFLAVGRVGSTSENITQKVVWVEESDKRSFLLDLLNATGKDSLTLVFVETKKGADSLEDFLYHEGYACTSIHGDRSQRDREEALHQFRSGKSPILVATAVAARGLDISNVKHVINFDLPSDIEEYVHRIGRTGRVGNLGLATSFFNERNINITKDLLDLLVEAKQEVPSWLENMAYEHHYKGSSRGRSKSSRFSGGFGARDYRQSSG
Method: RNA Bind-n-Seq
Molecule type: RNA
Matrix: in vitro
Concentration: 90 pmol
Setting: 4-mer, random 30-nt RNA, single round
With: 3 µM iPr-DMDA-PatA, 2 mM ADP, 2 mM phosphate
Reference: input library
Reading: higher = stronger binding
Measurement: 4-mer enrichment
UUGG: 0.85 fold
UACC: 1.08 fold
AUAA: 1.45 fold
GCUA: 0.833 fold
GACU: 0.976 fold
AAUG: 1.14 fold
AGGA: 1.28 fold
GUAG: 1.08 fold
CUAU: 0.955 fold
AAAC: 1.42 fold
UGAA: 1.28 fold
UUCG: 0.841 fold
CCUA: 1.02 fold
GGCG: 0.778 fold
CAUC: 0.956 fold
CUAG: 0.904 fold
GUAU: 1.03 fold
CUUG: 0.757 fold
CGUG: 0.827 fold
GUAC: 0.901 fold
GAGU: 1.19 fold
UGUG: 0.909 fold
GGCC: 0.637 fold
CGAU: 0.926 fold
GGAC: 0.94 fold

Sample 4
Target: RING finger protein unkempt homolog, zinc fingers 1-6, GST-SBP tag (UNK, Homo sapiens, UniProt Q9C0B0, residues 30-357)
Method: RNA Bind-n-Seq
Molecule type: RNA
Matrix: in vitro
Concentration: not given
Setting: RNA with constant flanks, ends assumed
Reference: input RNA pool
Reading: higher = stronger binding
Measurement: bound/input enrichment
All sequences stand within: GGGAGUUCUACAGUCCGACGAUC … CAACAGAGGAUUGAGCAUCA
Construct (chain): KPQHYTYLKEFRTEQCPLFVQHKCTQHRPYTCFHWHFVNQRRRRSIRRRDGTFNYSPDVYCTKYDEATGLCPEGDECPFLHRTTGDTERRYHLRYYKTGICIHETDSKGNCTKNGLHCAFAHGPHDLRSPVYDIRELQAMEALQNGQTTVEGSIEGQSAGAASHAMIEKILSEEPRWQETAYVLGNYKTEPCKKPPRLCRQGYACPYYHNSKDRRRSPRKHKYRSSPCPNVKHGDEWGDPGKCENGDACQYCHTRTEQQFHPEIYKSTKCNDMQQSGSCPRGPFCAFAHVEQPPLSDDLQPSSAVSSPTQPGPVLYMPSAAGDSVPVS
CCAAAGAAACUCCAUUUAUGUCCCUUGUGUGGCAAAAAUUUCUCUAACAACUCAAACCUAAUCCGGCACCAGAGAAUACAUGCAGCUGAAAGACUGUGUAUGGGUGUGGACUGCACUGAA: 0.178 ratio
CUGAAUGAUUUUGGCUUCAUGAUCUUUCACUCACCAUAUUGUAAACUGGUGCAGAAAUCUCCCGCUCGGAUGUUCCUGAAUGACUUUCUUAAUGAUCAAAACAGAGAUAAAAACAGUAUU: 0.104 ratio
GAUAUUCUCUACGCCCGGCAAAAGAUUGUUGUCAUAGCGAAAGCCUUUGGUCUCCAAGCCACCGAUCUGGUGUACAUUGACUUUCGAGAUGGAGCUGGGCUGCUUAGACAGUCACGAGAA: 0.186 ratio
ACAUCAGCGAACUCAUGCAGGGGAAAAGCCUUAUGGGUGCAGUGAAUGUGGGAAAGCUUUCCGCAGCAAGUCAUACCUAAUUAUACACAUGAGAACUCAUUCAGGUGAAAAACCAUAUGA: 0.146 ratio
UGUUAAUAAAUUAGAAGCUAUUAACUAAACAUACCUAAAUGACACAGCUAAUAAAUGGAUCCGUUUCAUGUUCAUAACAAACUGAAAAAUACAUUACUCCAAGAAAAAGUCUUGAUACUG: 0.574 ratio
CAAUGCGUAUGAGUCUUUGACAUCAUGAUGUACAUCCGGCAAAGAAAAGAGACAAAACCCACCGAAGUUUCUGAGGAUUUUCCAUCACCAAAAGAAGAUGUGAAGUUGGAAAAGAAAUUG: 0.233 ratio
AAGUCCUCAUUGACAAUUCAGUUUGUUGAAGGCCAAUUUGUUGAUUCCUACGAUCCAACCACCGAGAACACGUUCACCAAGUUGAUCACGGUAAAUGGUCAAGAGUAUCAUCUUCAGCUU: 0.0691 ratio
GUUGUACCUAAAGGAAAAGGAGAACAGAUUGCAAGGGAGCAUGGUAUUAGGUUUUUUGAGACCCGUGCAAAAGCAAAUAUAAACAUCGAAAAGGCGUUCCUCACGUUAGCUGAAGAUAUC: 0.923 ratio
